Experimental data pooled from the literature.
Numbered parts are unrelated; each lists some results of a single study.

Study 1
Target: Histone acetyltransferase KAT6A, winged helix 2, GST fusion (KAT6A, Homo sapiens, UniProt Q92794, residues 85-181)
Technique: protein binding microarray
Form: double-stranded DNA, one strand shown
Sample: in vitro
Tested at: not given
Notes: 8-mer, flanks averaged, mean of 2 arrays, mostly near background
Baseline: not given
Reading: higher = stronger binding
Target sequence (chain): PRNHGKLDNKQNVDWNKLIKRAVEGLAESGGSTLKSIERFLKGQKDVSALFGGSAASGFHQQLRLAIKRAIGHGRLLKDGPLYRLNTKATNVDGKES
`ATCGGACC` has an E-score of 0.0834.
The E-score of `GAAAGTAC` is reported as 0.0283.
`ACTCGCGA` gave an E-score of 0.135.
The E-score of `ACCTTTCG` is reported as -0.00803.
The E-score of `CCGGAAGG` is reported as 0.264.
The E-score of `TTACGGAA` is reported as 0.0196.
`ACAATTTC` has an E-score of -0.204.
`CTTATTAA` has an E-score of 0.0535.
With `ATAGCTAG` the E-score was -0.157.
`GGCCCTAA` gave an E-score of 0.00556.
`TAATCAAA` gave an E-score of 0.0918.

Study 2
Target: Ras GTPase-activating protein-binding protein 1, full length (G3BP1, Homo sapiens, UniProt Q13283)
Chain of UniProt Q13283 (whole entry, looked up): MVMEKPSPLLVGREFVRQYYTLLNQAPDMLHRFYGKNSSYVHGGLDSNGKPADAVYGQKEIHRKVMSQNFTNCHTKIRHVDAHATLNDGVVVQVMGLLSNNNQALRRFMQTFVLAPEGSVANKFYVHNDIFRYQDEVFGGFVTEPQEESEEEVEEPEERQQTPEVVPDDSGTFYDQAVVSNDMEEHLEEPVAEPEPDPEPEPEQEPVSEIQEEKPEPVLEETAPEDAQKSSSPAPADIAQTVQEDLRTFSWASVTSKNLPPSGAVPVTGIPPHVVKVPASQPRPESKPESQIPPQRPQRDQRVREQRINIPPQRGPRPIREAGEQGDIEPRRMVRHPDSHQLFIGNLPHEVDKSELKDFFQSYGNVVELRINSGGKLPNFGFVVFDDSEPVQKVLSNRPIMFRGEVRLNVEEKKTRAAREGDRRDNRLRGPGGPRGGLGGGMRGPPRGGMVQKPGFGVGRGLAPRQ
Technique: RNA Bind-n-Seq
Form: RNA
Sample: in vitro
Tested at: 200 nM
Notes: whole 134-nt RNA, ends assumed
Together with: 150 mM LiCl
Baseline: input library
Reading: higher = stronger binding
Each molecule: 7-deaza-guanosine replaces G
`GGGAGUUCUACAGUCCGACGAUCUUUGCAGAGCAGUCUCUGAUGAAGAAUGCCAUAAAAACAUCGGAGGAGUCAUGGAUUGAACAGCAGAUGCUAGAAGACAAGAAACGGGCCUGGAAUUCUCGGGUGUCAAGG` gave a log2 enrichment of -2.19.
`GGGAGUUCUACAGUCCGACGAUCUGGCCCUGGUGGCAUGCGGGGAGGAAGAGGUGGCCUCAUGGAUCGUGGUGGUCCCGGUGGAAUGUUCAGAGGUGGCGGUGGUGGAGACAGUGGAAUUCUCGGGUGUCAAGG` has a log2 enrichment of -0.248.
`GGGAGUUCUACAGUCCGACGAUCAGUCCUGUGCUACACAUCGUAUGUACCGAAUCAAACCCAAACCCAAAUUUUUUUAAAAAAGUAUUAUGUUACGCCGUUCGGAUCUGCACUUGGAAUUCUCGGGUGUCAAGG` gave a log2 enrichment of 0.935.
`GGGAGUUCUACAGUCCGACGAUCUCCUGUGCUACACAUCGUAUGUACCGAAUCGGUUUUUUGGGUUUUUUGGGGUUUUUUGGAAAGUAUUAUGUUACGCCGUUCGGAUCUGCAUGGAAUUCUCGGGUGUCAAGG` has a log2 enrichment of 0.798.
`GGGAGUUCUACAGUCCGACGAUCUAACUUUAGAGGAGGAUCUGAUGGAUAUGGCAGUGGACGUGGAUUUGGGGAUGGCUAUAAUGGGUAUGGAGUAGGACCUGGAGGUGGCAAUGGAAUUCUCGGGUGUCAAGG` has a log2 enrichment of 0.0432.
The log2 enrichment of `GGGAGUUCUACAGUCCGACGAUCUGCAGCUCUCCGGCUGGGAUCCUGGUUGACGCCAUGUCCCAGAAGCACCUUCAGAUCAACCAGACAUUUGAGGAGCUGCGACUGGUCACGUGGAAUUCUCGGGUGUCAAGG` is reported as -1.56.
`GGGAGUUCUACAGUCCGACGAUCUCCUGUGCUACACAUCGUAUGUACCGAAUCAAACCCCCAAACCCCCCCAAAUUUUUAAAAAAGUAUUAUGUUACGCCGUUCGGAUCUGCAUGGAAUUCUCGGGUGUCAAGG` gave a log2 enrichment of 0.875.
`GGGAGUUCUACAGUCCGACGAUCUUCAUUCUUACUUUGAAUCUAGGAUUUUAUGGAAGACCUUGGGUUAUGGAACAGAGAAAAGAACUCUUUAGAAGGUAAAUCUUCAUUAUAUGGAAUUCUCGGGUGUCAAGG` has a log2 enrichment of -1.79.
The log2 enrichment of `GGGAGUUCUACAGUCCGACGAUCCUCAAGUCCUGUGCUACACAUCGUAUGUACCGAAUCGGAGGUUUUUUUGGAGGAAAGUAUUAUGUUACGCCGUUCGGAUCUGCACUUCCAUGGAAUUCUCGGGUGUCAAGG` is reported as 0.383.
`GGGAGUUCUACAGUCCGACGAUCGCAGGAAGUAAAAACAAUUGGAAAUGCUUCGGAUAGUGGCAGGGGUGGGGGUUGCUAAGGAAAGGGUGGGAUGGGAGUGGGUAAAGAGUUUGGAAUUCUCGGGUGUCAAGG` has a log2 enrichment of 0.0707.

Study 3
Target: Protein max, full length (MAX, Homo sapiens, UniProt P61244-2, residues 1-151)
Technique: protein-binding microarray
Form: double-stranded DNA, one strand shown
Sample: in vitro
Tested at: not given
Notes: k-mer, scored over probes, only values ≥0.25
Reading: higher = stronger binding
With `CACATGCG` the E-score was 0.474.
`AAGTCACG` gave an E-score of 0.362.
`AACGTGCT` gave an E-score of 0.437.
`TGCAGCCA` has an E-score of 0.276.
With `CCACACGG` the E-score was 0.263.

Mixed results
With `PhoQ, residues 284 288 289 292 302 303 QWQEDG` the fold induction was 8.76 (PhoP, residues 12 14 15 18 19 LHATL (Escherichia coli, UniProt P23836); Sort-seq, refers to: YFP reporter; E. coli; PhoQ-PhoP variant library, together with: 10 µM Mg2+; baseline: high Mg2+ state, higher = stronger signaling).
